Measured values from different studies.
Protocols differ between the studies behind these lines. “And” joins repeats or separate records; there may be more than shown.
UCHL1: Ubiquitin carboxyl-terminal hydrolase isozyme L1 (UCHL1, Homo sapiens, UniProt P09936)
Sequence of UniProt P09936 (whole entry, looked up): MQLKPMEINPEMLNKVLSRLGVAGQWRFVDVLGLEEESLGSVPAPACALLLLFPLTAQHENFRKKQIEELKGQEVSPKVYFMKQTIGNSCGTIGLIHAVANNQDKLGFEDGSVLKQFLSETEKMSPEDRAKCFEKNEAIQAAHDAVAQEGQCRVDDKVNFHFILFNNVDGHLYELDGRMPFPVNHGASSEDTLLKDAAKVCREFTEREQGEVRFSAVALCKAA

SMILES	target or system	test	test system	conditions	scale	measurement	value
Cn1ccc(NC(=O)C(C#N)=Cc2ncccc2C(F)(F)F)n1	UCHL1	covalent, intact protein LC-MS	–	12.5 µM	–	labelling	26.4%
CCCCN1CCN(c2ccc3[nH]c(-c4ccc5[nH]c(-c6ccc(C(F)(F)F)cc6)nc5c4)nc3c2)CC1	HCC 2998	SRB	–	10 µM, 48 h	–	growth percent	-84%
CCN(CC)c1ccc(C=NNC(=O)CSc2nc3ccccc3c(=O)n2Cc2ccc(S(N)(=O)=O)cc2)c(O)c1	HCC 2998	NCI five-dose screen	–	–	–	TGI	> 100 µM
Cc1ccccc1NC(=O)C(C#N)=Cc1ccccc1Cl	UCHL1	covalent, intact protein LC-MS	–	12.5 µM	–	labelling	36.8%
CCCCN1CCN(c2ccc3[nH]c(-c4ccc5[nH]c(-c6cc(OC)c(OC)c(OC)c6)nc5c4)nc3c2)CC1	HCC 2998	SRB	–	10 µM, 48 h	–	growth percent	100%
O=c1ccn(Cc2cn(-c3c4ccccc4nc4ccccc34)nn2)c(=O)[nH]1	HCC 2998	NCI60 single-dose screen	–	10 µM	–	growth percentage	90.6%
CCOc1ccc(-c2nc3cc(-c4nc5cc(N6CCN(C)CC6)ccc5[nH]4)ccc3[nH]2)cc1OCC	HCC 2998	SRB	–	10 µM, 48 h	–	growth percent	-15.9%
O=C(Nc1ccon1)C12CC3CC(C1)CC(n1cnc([N+](=O)[O-])n1)(C3)C2	Trypanosoma cruzi	reporter translation, Renilla luciferase mRNA translation	cell-free extract	40 µM	reference: DMSO	inhibition	4.5%
NNc1nc(-c2ccc(Cl)cc2)c2c(NC(=O)c3ccccc3)nnc-2[nH]1	HCC 2998	SRB	–	10 µM, NCI60 single-dose screen, colon cancer	reference: untreated	cell growth	107%
S=C([S][Au-][P+](CCCCCC[P+]([Au-][S]C(=S)n1cccn1)(c1ccccc1)c1ccccc1)(c1ccccc1)c1ccccc1)n1cccn1	HCC 2998	cell growth, NCI-60 screen	–	colon cancer	–	log10 TGI	-5.48
CCCC(CCC)C(=O)OCc1cn(-c2c3ccccc3nc3ccccc23)nn1	HCC 2998	NCI60 single-dose screen	–	10 µM	–	growth percentage	108%
CCOC(=O)CSc1nc(-c2ccc(Cl)cc2)c2c(NC(=O)c3ccccc3)nnc-2[nH]1	HCC 2998	SRB	–	10 µM, NCI60 single-dose screen, colon cancer	reference: untreated	cell growth	94.2%
C#C[C@@]1(O)[C@@H](CO)O[C@@H](n2cc(I)c3c(N)ncnc32)[C@@H]1O	HCC 2998	SRB	–	NCI-60 screen	–	TGI	2.6 µM and 3.47 µM
Cc1cc(=O)[nH]c(=O)n1Cc1cn(-c2c3ccccc3nc3ccccc23)nn1	HCC 2998	NCI60 single-dose screen	–	10 µM	–	growth percentage	62.5%
Cc1cc(=O)[nH]n1-c1nc(-c2ccc(Cl)cc2)c2c(NC(=O)c3ccccc3)nnc-2[nH]1	HCC 2998	SRB	–	10 µM, NCI60 single-dose screen, colon cancer	reference: untreated	cell growth	113%
C#C[C@@]1(O)[C@@H](CO)O[C@@H](n2cc(F)c3c(N)ncnc32)[C@@H]1O	HCC 2998	SRB	–	NCI-60 screen	–	TGI	2.82 µM
Cn1cncc1C1=CN(c2ncnc3[nH]cnc23)CCS1	HCC 2998	–	–	colon cancer	–	TGI	> 200 µM
CN1CCN(c2ccc3[nH]c(-c4ccc5[nH]c(-c6ccc(C(F)(F)F)cc6)nc5c4)nc3c2)CC1	HCC 2998	SRB	–	10 µM, 48 h	–	growth percent	87.2%
O=C(Nc1nnc2n3c(=S)[nH][nH]c3nc(-c3ccc(Cl)cc3)c1-2)c1ccccc1	HCC 2998	SRB	–	10 µM, NCI60 single-dose screen, colon cancer	reference: untreated	cell growth	109%
CCCN1CCN(c2ccc3[nH]c(-c4ccc5[nH]c(-c6ccc(C(F)(F)F)cc6)nc5c4)nc3c2)CC1	HCC 2998	SRB	–	10 µM, 48 h	–	growth percent	-89.8%
Cc1cc(C)n(-c2nc(-c3ccc(Cl)cc3)c3c(NC(=O)c4ccccc4)nnc-3[nH]2)n1	HCC 2998	SRB	–	10 µM, NCI60 single-dose screen, colon cancer	reference: untreated	cell growth	93%
COc1ccc(OC)c(-c2nc3ccc(-c4nc5ccc(N6CCN(C)CC6)cc5[nH]4)cc3[nH]2)c1	HCC 2998	SRB	–	10 µM, 48 h	–	growth percent	102%
O=C1NCCc2[nH]c(-c3ccncc3)cc21	HCC 2998	MTS	colon cancer	–	–	IC50	> 10 µM
